Values quoted from earlier work as cited in several papers.
Compare with care: the assays were run in different laboratories. ≈ marks a conversion by molar mass, not a printed value.

With `CCn1c2ccccc2c2cc(-n3nncc3-c3ccccc3)ccc21` the GI50 was 0.13 µM (MDA-MB-231; 120 h).
Under “anti-HIV activity fold”, `[N-]=[N+]=NCCCCCCCCCCCC(=O)OCC1OC(n2ccc(N)nc2=O)CS1` (centres unmarked) is recorded as 16 to 36 fold (HIV; concentration not given, cell-free virus, at least; relative to: lamivudine).
For `c1cc([C@H]2CC[C@]3(CC2)OO[C@]2(O3)C3CC4CC(C3)CC2C4)ccc1OCCN1CCOCC1`, the thermodynamic solubility was 0.536 mg/mL (≈ 1140 µM) (FeSSIF; pH 5.0).
Under “log2 fold change”, `OCCN1CCN(CCC=C2c3ccccc3Sc3ccc(C(F)(F)F)cc32)CC1` is recorded as 1.31 (MCF7; microarray, item: SLCO4C1 mRNA; concentration not given; relative to: DMSO).
`CC(C)(N)CNC(=O)C[C@H]1CC[C@]2(CC1)OO[C@]1(O2)C2CC3CC(C2)CC1C3` gave an oral bioavailability of 13% (male Sprague-Dawley rat; oral, 10 mg/kg).
For `CN[C@H](CC(C)C)C(=O)N[C@H]1C(=O)N[C@@H](CC(N)=O)C(=O)N[C@H]2C(=O)N[C@H]3C(=O)N[C@H](C(=O)N[C@H](C(=O)O)c4cc(O)cc(O)c4-c4cc3ccc4O)[C@H](O)c3ccc(c(Cl)c3)Oc3cc2cc(c3O[C@@H]2O[C@H](CO)[C@@H](O)[C@H](O)[C@H]2O[C@H]2C[C@](C)(N)[C@H](O)[C@H](C)O2)Oc2ccc(cc2Cl)[C@H]1O`, the MIC was > 32 mg/L (Veillonella sp.; HM-49).
`C=CC(=O)OC` — result for “second-order rate constant”: 0.11 M⁻¹ s⁻¹ (reaction with 3-mercaptopropionic acid; pH 8.1, 30 °C).
Under oxidative phosphorylation, `O=C(O)C(F)(F)C(F)(F)C(F)(F)C(F)(F)C(F)(F)F` is recorded as “no effect” (polarographic respiration; isolated rat liver mitochondria; 200 µM).

Excerpt of the above:
Under “log2 fold change”, `OCCN1CCN(CCC=C2c3ccccc3Sc3ccc(C(F)(F)F)cc32)CC1` is recorded as 1.31 (MCF7; microarray, item: SLCO4C1 mRNA; concentration not given; relative to: DMSO).
